Published values collected from several papers.
A part holds a random share of what one study measured. Values joined by “and” are separate records of one study, mostly repeats; a detail may differ.
Sequence of UniProt P49336 (whole entry, looked up): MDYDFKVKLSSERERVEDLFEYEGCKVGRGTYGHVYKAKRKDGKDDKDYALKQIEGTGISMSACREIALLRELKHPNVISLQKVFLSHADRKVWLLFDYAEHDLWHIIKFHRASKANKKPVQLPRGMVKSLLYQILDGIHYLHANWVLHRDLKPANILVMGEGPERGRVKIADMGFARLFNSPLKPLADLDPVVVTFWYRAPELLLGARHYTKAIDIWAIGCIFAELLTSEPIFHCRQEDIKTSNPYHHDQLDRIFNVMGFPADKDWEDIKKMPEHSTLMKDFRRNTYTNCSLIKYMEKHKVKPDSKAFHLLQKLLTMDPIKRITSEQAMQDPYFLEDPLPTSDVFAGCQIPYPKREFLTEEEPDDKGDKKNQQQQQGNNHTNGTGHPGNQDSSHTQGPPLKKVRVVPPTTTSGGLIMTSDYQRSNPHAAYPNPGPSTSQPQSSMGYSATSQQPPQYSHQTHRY
Sequence of UniProt O96013 (whole entry, looked up): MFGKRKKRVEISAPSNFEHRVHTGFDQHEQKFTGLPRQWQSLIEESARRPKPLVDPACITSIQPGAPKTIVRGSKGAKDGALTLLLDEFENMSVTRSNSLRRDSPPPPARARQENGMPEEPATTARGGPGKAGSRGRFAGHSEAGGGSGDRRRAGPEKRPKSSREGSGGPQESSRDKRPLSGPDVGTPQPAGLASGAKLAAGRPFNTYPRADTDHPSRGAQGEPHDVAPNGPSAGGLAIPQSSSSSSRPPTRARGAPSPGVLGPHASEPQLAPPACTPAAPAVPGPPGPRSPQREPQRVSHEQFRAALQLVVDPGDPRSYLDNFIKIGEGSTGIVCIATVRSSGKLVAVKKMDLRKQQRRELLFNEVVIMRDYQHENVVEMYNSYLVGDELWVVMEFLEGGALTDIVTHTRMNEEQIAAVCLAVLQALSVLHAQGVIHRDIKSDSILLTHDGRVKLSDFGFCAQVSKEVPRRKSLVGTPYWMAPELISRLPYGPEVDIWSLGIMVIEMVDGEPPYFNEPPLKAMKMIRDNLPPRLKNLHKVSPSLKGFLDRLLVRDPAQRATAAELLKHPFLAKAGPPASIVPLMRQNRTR
Sequence of UniProt Q9NSY1 (whole entry, looked up): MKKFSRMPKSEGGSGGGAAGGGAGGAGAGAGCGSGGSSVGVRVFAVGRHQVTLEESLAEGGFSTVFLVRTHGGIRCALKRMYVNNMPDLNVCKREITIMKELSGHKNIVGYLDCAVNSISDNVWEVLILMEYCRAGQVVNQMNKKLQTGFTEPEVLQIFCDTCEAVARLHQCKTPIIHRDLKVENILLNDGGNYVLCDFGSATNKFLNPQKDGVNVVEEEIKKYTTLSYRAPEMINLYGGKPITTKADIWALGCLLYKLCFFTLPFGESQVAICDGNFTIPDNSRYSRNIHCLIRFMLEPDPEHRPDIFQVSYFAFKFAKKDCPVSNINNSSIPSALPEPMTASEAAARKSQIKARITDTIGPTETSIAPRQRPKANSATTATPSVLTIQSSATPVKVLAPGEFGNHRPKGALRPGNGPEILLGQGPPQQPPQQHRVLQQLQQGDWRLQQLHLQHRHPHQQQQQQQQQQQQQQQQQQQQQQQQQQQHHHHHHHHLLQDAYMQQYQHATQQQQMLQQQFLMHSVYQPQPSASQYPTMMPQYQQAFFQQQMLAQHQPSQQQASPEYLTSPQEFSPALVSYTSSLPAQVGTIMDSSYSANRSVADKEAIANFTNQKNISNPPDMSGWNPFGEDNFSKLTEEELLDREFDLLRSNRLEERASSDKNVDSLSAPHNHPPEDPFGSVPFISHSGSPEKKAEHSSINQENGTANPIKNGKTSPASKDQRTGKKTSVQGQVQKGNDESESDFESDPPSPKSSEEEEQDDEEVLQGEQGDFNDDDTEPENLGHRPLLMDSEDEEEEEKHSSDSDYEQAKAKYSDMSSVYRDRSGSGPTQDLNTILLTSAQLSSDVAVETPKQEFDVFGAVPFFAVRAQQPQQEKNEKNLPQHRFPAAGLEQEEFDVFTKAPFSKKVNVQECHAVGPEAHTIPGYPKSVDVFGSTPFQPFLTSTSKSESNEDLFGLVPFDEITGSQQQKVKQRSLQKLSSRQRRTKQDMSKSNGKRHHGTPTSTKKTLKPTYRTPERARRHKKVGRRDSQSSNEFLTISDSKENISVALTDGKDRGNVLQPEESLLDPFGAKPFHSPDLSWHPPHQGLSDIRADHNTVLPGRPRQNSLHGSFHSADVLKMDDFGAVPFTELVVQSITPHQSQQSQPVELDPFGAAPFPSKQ
Sequence of UniProt P32298 (whole entry, looked up): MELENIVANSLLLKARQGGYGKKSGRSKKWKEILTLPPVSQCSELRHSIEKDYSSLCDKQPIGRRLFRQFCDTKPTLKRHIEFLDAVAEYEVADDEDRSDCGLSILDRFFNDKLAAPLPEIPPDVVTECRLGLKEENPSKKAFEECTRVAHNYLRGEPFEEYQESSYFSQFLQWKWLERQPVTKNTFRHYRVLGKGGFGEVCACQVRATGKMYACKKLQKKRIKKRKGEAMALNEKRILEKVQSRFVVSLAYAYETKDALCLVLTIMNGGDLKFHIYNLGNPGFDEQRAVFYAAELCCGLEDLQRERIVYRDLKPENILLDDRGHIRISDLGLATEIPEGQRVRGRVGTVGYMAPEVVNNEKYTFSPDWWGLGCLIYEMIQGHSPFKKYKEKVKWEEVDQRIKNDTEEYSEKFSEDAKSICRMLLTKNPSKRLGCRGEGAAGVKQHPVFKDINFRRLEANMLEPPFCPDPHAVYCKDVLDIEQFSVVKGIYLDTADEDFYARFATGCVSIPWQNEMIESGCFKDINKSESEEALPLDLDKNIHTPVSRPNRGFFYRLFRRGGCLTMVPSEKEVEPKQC

Block 1
Compound: CC[C@@H](C)c1nc2cc(Nc3ccnc4ccc(S(=O)(=O)C(C)C)cc34)ccc2s1.Cl
cell line | effect on | technique | tested at | together with | viability
L929 | – | CCK-8 | 3.125 µM | zVAD | 105% and 101% and 107% and 103%
L929 RIPK3 knockout | – | – | 0.781 µM | zVAD | 101% and 99.1% and 105% and 102%
HT-29 | necroptosis protection | CCK-8 | 0.625 µM | TNF-α SMAC mimetic zVAD | 37.8% and 29% and 19.4% and 19.1% and 25.1%
L929 | – | CCK-8 | 1.563 µM | zVAD | 97.8% and 96.5% and 100% and 97.5%
L929 RIPK3 knockout | – | – | 50 µM | zVAD | 55.5% and 58.7% and 58.3% and 37.5% and 36.1%
L929 RIPK3 knockout | – | – | 0.781 µM | – | 99% and 101% and 97.2% and 98.1%
L929 | – | CCK-8 | 50 µM | zVAD | 42.4% and 34.4% and 45.1% and 35.2% and 35.3%
L929 RIPK3 knockout | – | – | 6.25 µM | – | 103% and 99.2% and 110% and 105%
L929 | – | CCK-8 | 50 µM | – | 34.7% and 34.2% and 46% and 34.8% and 34.1%
L929 | – | CCK-8 | 100 µM | zVAD | 38.1% and 39.3% and 40.9% and 39.2%
HT-29 | necroptosis protection | CCK-8 | 0.156 µM | TNF-α SMAC mimetic zVAD | 19.8% and 12.8% and 19.3% and 13.1%
L929 RIPK3 knockout | – | – | 6.25 µM | zVAD | 99.5% and 105% and 102%

Block 2
Target: Dual specificity tyrosine-phosphorylation-regulated kinase 1B (DYRK1B, Homo sapiens, UniProt Q9Y463)
Effect on: enzyme activity
Mode: inhibitor
Technique: radiometric
Tested at: 0.5 µM
SMILES | remaining activity
O=c1cc(N2CCNCC2)oc2c(-c3ccccc3)cccc12 | 99.2%
O=c1c2ccccc2[nH]c(=S)n1CCN1CCC(=C(c2ccc(F)cc2)c2ccc(F)cc2)CC1 | 97.1%
Oc1ccc(-c2nc(-c3ccncc3)c(-c3ccc(F)cc3)[nH]2)cc1 | 105%
CO[C@H]1C[C@@H]2CC[C@@H](C)[C@@](O)(O2)C(=O)C(=O)N2CCCC[C@H]2C(=O)O[C@H]([C@H](C)C[C@@H]2CC[C@@H](O)[C@H](OC)C2)CC(=O)[C@H](C)/C=C(\C)[C@@H](O)[C@@H](OC)C(=O)[C@H](C)C[C@H](C)/C=C/C=C/C=C/1C | 108%
O=C(O)c1ccc2c3c1cccc3c(=O)n1c3ccccc3nc21 | 40.1%

Block 3
Compound: Cn1cncc1[C@](O)(COc1ccc(C#N)cc1-c1ccc(OC(F)(F)F)cc1)c1ccc(C#N)cc1
Effect on: cell-free assay
Technique: competition with immobilised ligand
Tested at: 1 µM
target | remaining binding
BMP2K (Homo sapiens, UniProt Q9NSY1) | 97%
MAP3K19 (Homo sapiens, UniProt Q56UN5) | 63%
PAK4 (Homo sapiens, UniProt O96013) | 100%
GRK4 (Homo sapiens, UniProt P32298) | 62%
CDK8 (Homo sapiens, UniProt P49336) | 66%

Other studies, line by line
Target: Calcium/calmodulin-dependent protein kinase type II subunit alpha (CAMK2A, Homo sapiens, UniProt Q9UQM7)
Sequence of UniProt Q9UQM7 (whole entry, looked up): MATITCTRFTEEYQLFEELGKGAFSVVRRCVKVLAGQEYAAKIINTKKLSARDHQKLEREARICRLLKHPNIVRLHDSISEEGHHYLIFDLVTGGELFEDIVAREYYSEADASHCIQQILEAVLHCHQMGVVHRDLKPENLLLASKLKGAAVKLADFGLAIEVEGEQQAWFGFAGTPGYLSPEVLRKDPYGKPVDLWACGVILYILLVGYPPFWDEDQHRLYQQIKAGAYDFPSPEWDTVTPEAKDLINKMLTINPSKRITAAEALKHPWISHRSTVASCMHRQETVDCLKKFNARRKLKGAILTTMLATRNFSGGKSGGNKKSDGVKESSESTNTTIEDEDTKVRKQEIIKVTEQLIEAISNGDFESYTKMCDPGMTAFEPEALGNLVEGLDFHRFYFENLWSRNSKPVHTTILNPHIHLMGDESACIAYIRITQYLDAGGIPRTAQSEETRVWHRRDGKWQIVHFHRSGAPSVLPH
Effect on: enzyme activity
Mode: inhibitor
Tested at: 10 µM
Compound | inhibition [%]
CC1=NCCc2c1[nH]c1cc(O)ccc21 | -7
Oc1ccc(CCc2cc(O)cc(O)c2)cc1 | 4

For quick reference, copied from above (block 2):
SMILES | remaining activity
O=c1c2ccccc2[nH]c(=S)n1CCN1CCC(=C(c2ccc(F)cc2)c2ccc(F)cc2)CC1 | 97.1%
